# Measured values collected from several papers.
# Parts stem from different laboratories: compare values within a part only. Positions count from the first letter of the parent shown.

# Set 1 — technique: protein binding microarray; molecule type: double-stranded DNA, one strand shown; matrix: in vitro; concentration: not given; reference: not given; reading: higher = stronger binding
# Target: Histone acetyltransferase KAT6A, winged helix 1, GST fusion (KAT6A, Homo sapiens, UniProt Q92794, residues 1-85)
# Setting: 8-mer, flanks averaged, mean of 2 arrays, mostly near background
# Construct (chain): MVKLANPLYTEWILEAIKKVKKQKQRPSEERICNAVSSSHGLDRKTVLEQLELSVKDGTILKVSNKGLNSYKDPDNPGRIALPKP
Sequence,E-score
AGGCATAG,-0.0184
CTAACCAA,-0.178
AGGCCTCC,-0.098
GCGTGCTA,0.107
ATGTCACA,-0.119
CTGATCCA,-0.214
AAGATGAG,-0.239
CAGGCGCG,0.311

# Set 2 — effect on: binding; technique: phage display NGS; molecule type: peptide; reference: input library
# Target: UDP-N-acetylglucosamine--peptide N-acetylglucosaminyltransferase 110 kDa subunit (OGT, Homo sapiens, UniProt O15294)
# UniProt O15294, sequence (whole entry, looked up): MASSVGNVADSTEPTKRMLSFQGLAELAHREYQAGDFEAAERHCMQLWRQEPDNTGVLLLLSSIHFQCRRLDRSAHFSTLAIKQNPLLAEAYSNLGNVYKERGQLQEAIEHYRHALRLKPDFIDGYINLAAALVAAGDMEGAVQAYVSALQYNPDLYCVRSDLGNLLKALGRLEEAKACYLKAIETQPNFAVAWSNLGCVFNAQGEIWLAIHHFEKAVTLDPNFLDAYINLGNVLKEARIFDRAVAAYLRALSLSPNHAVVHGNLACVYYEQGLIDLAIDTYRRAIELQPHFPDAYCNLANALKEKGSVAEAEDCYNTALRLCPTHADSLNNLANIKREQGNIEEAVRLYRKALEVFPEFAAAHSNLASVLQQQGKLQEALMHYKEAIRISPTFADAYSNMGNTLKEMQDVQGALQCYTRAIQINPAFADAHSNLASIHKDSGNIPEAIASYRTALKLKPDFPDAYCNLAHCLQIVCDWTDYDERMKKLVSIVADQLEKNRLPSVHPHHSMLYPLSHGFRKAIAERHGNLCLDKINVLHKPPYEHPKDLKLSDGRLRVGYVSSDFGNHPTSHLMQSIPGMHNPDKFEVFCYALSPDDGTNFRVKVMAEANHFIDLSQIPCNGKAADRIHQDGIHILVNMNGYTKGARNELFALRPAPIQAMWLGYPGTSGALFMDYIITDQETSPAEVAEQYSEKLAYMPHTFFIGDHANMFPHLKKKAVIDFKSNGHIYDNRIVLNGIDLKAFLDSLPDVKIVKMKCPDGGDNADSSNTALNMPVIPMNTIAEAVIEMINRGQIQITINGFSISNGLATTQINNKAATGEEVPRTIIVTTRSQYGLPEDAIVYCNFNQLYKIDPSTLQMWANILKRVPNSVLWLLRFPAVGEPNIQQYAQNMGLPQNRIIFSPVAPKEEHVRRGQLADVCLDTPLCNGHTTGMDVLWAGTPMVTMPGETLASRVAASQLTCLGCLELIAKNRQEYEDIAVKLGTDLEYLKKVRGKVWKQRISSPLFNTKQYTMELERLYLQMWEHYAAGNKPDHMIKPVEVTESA
Sequence,minimum log2 enrichment ratio
HAGTIQPVYQISYVK,2.48
WSAVMPQYRIEYNYA,5.89
QPIHSHAIWPHGTHH,3.2
SYNHRHSTSYHIDHR,2.87
QWQLFPPKYMIITT,4.79
IRHPYDHFHDKPGGS,3.23
SSYMPMYQLTVKPGQ,4.24
ATRETEPAYQIVYTK,1.7

# Set 3 — target: CCNA2, cyclin fold, Cln2 fusion (human); technique: yeast growth competition, sequencing; matrix: yeast; setting: strong parent motif; reference: not given; reading: higher = stronger binding
# Starting sequence: viral docking peptide; YKVKRRLVFGADD; partner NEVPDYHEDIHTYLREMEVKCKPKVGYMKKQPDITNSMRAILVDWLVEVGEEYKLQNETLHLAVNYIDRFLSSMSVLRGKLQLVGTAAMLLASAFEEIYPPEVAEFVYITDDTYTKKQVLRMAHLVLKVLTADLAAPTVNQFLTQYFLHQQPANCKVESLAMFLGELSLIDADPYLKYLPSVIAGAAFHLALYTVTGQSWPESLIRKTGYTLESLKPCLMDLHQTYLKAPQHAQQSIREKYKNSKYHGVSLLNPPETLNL
Variant,normalised enrichment score
YKVKRRLVFGHDD [A11H],6.46
YKVKRRLVFDADD [G10D],6.42
YKVKRRLVFGDDD [A11D],6.42
YKVKRRLVMGADD [F9M],4.98
YKVKARAVFGADD [R5A L7A],0.955
YKVKRTLVFGADD [R6T],5.28
YKVKRRQVFGADD [L7Q],0.0709
YKGKRRLVFGADD [V3G],4.37
YKVKQRLVFGADD [R5Q],4.41
YKVKWRLVFGADD [R5W],1.08
YKVKERLVFGADD [R5E],0.638
YKVKRRYVFGADD [L7Y],0.368
YKVKRRLVFGRDD [A11R],6.46
YKVKRRLYFGADD [V8Y],6.41
YKVKRRLVFVADD [G10V],5.76
YKVKRRLVFGACD [D12C],6.41
YKVKRRLVFGPDD [A11P],6.67

# Set 4 — target: inorganic phosphate, free oxyanion; technique: microfluidic competitive inhibition; matrix: in vitro, cell-free expressed; concentration: not given; reading: lower = stronger binding
# Setting: derived from inhibition constants, unchanged parent 615000 nM
# Starting sequence: PafA, mature enzyme, eGFP fusion (Elizabethkingia meningoseptica, UniProt Q9KJX5); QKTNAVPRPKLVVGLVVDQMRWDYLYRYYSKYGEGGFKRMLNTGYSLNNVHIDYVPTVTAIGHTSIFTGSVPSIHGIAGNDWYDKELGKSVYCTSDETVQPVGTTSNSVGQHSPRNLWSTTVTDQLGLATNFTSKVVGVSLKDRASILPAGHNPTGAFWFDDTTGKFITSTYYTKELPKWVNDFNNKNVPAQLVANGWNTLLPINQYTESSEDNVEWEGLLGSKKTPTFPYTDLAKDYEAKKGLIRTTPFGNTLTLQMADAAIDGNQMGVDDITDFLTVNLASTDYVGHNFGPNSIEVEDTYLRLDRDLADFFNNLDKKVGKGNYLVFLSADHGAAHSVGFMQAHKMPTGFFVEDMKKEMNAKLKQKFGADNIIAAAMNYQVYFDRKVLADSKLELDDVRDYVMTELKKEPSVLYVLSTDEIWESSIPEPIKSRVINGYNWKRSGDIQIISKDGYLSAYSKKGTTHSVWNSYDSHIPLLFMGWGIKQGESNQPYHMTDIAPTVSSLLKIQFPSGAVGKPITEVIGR
Variant,phosphate dissociation constant
V16G,204 µM
Y83G,384 µM
N290G,598 µM
N214V,608 µM

# A few entries again (set 3):
Variant,normalised enrichment score
YKGKRRLVFGADD [V3G],4.37
YKVKQRLVFGADD [R5Q],4.41
YKVKWRLVFGADD [R5W],1.08
YKVKERLVFGADD [R5E],0.638
YKVKRRYVFGADD [L7Y],0.368
